Experimental data collected from several papers.
± gives the spread as reported.

Structure (SMILES)	test	system	setting	scale	endpoint	result
CCCC[C@H](NC(=O)CCCCCCCNC(=O)CN1CCN(CC(=O)O)CCN(CC(=O)O)CC1)C(=O)N[C@H]1CC(=O)NCCCC[C@@H](C(N)=O)NC(=O)[C@H](Cc2c[nH]c3ccccc23)NC(=O)[C@H](CCCNC(=N)N)NC(=O)[C@@H](Cc2ccccc2)NC(=O)[C@H](Cc2c[nH]cn2)NC1=O [copper-64 labelled]	–	C57 mice, brain	intravenous, 0.37 MBq, 24 h	–	tissue uptake	0.01 ± 0.01 %ID/g
N=C(N)NCCC[C@@H]1NC(=O)[C@H](CCCCNC(=O)CCC(C(=O)O)N2CCCN3CCN(CCCN(C(CCC(=O)NCCCC[C@@H]4NC(=O)[C@@H](Cc5ccc(O)cc5)NC(=O)[C@H](CC(=O)O)NC(=O)CNC(=O)[C@H](CCCNC(=N)N)NC4=O)C(=O)O)CC3)CC2)NC(=O)[C@@H](Cc2ccc(O)cc2)NC(=O)[C@H](CC(=O)O)NC(=O)CNC1=O (stereo partly shown) [copper-64 labelled]	–	SCID mouse, PC-3 xenograft, tumour	iv, dose not given, 4 h	–	tumour uptake	2.4 ± 0.22 %ID/g
CCCC[C@H](NC(=O)CNC(=O)CNC(=O)CN1CCN(CC(=O)O)CCN(CC(=O)O)CC1)C(=O)N[C@H]1CC(=O)NCCCC[C@@H](C(N)=O)NC(=O)[C@H](Cc2c[nH]c3ccccc23)NC(=O)[C@H](CCCNC(=N)N)NC(=O)[C@@H](Cc2ccccc2)NC(=O)[C@H](Cc2c[nH]cn2)NC1=O [technetium-99m labelled]	–	C57 mouse, heart	iv, 0.037 MBq, 0.5 h	–	tissue uptake	0.74 ± 0.2 %ID/g
CCCC[C@@H]1NC(=O)[C@@H](CC(C)C)NC(=O)[C@H](CCCCNC(=O)CN2CCN(CC(=O)O)CCN(CC(=O)O)CC2)NC(=O)[C@@H](CO)NC(=O)[C@H](Cc2c[nH]cn2)NC(=O)[C@@H](Cc2c[nH]c3ccccc23)NC1=O	–	mouse plasma	24 h	–	free 64Cu	6.6%
N=C(N)NCCC[C@@H]1NC(=O)[C@H](CCCCNC(=O)CC[C@H](NC(=O)CC[C@H](NC(=O)CN2CCN(CC(=O)O)CCN(CC(=O)O)CCN(CC(=O)O)CC2)C(=O)N[C@@H](CCC(=O)NCCCC[C@@H]2NC(=O)[C@@H](Cc3ccccc3)NC(=O)[C@H](CC(=O)O)NC(=O)CNC(=O)[C@H](CCCNC(=N)N)NC2=O)C(=O)NCCCC[C@@H]2NC(=O)[C@@H](Cc3ccccc3)NC(=O)[C@H](CC(=O)O)NC(=O)CNC(=O)[C@H](CCCNC(=N)N)NC2=O)C(=O)NCCCC[C@@H]2NC(=O)[C@@H](Cc3ccccc3)NC(=O)[C@H](CC(=O)O)NC(=O)CNC(=O)[C@H](CCCNC(=N)N)NC2=O)NC(=O)[C@@H](Cc2ccccc2)NC(=O)[C@H](CC(=O)O)NC(=O)CNC1=O [indium-111 labelled]	–	female athymic nu/nu mice, kidney	intravenous, 1 h	–	tissue uptake	7.28 ± 0.57 %ID/g
CCn1cc(C(=O)NCCCCCC(=O)N[C@@H](CCCNC(=N)N)C(=O)N[C@@H](CC(C)C)C(=O)N[C@@H](CC(C)C)C(=O)N[C@@H](CCCNC(=N)N)C(=O)N[C@@H](CCCNC(=N)N)C(=O)N[C@@H](CC(C)C)C(=O)N[C@@H](CC(C)C)C(=O)N[C@@H](CCCNC(=N)N)C(N)=O)c(=O)c2cc3c(cc21)OCO3	RP-HPLC, C18 column	–	–	higher is more hydrophobic	retention time	7.2 min
C=C1CC[C@H](OCCCNC(=O)CCOCCOCCOCCOCCOCCOCCOCCOCCOCCOCCOCCOCCOCCOCCOCCOCCOCCOCCOCCOCCOCCOCCOCCOCCOCCOCCOCCOCCOCCOCCOCCOCCOCCOCCOCCOCCNC(=O)CCN2C(=O)CC(SC[C@H](NC(=O)[C@H](Cc3ccccc3)NC(=O)[C@H](CC(N)=O)NC(=O)[C@H](Cc3c[nH]cn3)NC(=O)[C@@H](NC(=O)[C@H](CC(=O)O)NC(=O)[C@H](CCC(N)=O)NC(=O)[C@H](CC(C)C)NC(=O)[C@H](CCCCN)NC(=O)[C@H](CCCCN)NC(=O)[C@H](CCCNC(=N)N)NC(=O)[C@H](CC(C)C)NC(=O)[C@H](Cc3c[nH]c4ccccc34)NC(=O)[C@H](CCC(=O)O)NC(=O)[C@@H](NC(=O)[C@H](CCCNC(=N)N)NC(=O)[C@H](CCC(=O)O)NC(=O)[C@H](CCSC)NC(=O)[C@H](CO)NC(=O)[C@H](CC(N)=O)NC(=O)[C@H](CC(C)C)NC(=O)[C@H](Cc3c[nH]cn3)NC(=O)[C@H](CCCCN)NC(=O)CNC(=O)[C@H](CC(C)C)NC(=O)[C@H](CC(N)=O)NC(=O)[C@H](Cc3c[nH]cn3)NC(=O)[C@H](CCSC)NC(=O)[C@H](CC(C)C)NC(=O)[C@H](CCC(N)=O)NC(=O)[C@@H](NC(=O)[C@H](CCC(=O)O)NC(=O)[C@H](CO)NC(=O)[C@@H](NC(=O)[C@@H](N)CO)C(C)C)[C@@H](C)CC)C(C)C)C(C)C)C(N)=O)C2=O)C/C1=C/C=C1\CCC[C@]2(C)[C@@H]([C@H](C)CCCC(C)(C)O)CC[C@@H]12 (stereo partly shown)	–	Sprague Dawley rat	subcutaneous, 3 µg/kg daily, 89 days	baseline: 1 µg/kg dose	dose-normalized AUC	0.98
CC(C)C[C@H](NC(=O)C[C@H](O)[C@H](CC(C)C)NC(=O)[C@H](Cc1c[nH]cn1)NC(=O)CNC(=O)[C@@H](NC(=O)[C@H](C)NC(=O)[C@H](Cc1c[nH]c2ccccc12)NC(=O)[C@H](CCC(N)=O)NC(=O)[C@@H](Cc1ccccc1)NC(=O)CCOCCOCCOCCNC(=O)CN1CCN(CC(=O)O)CCN(CC(=O)O)CC1)C(C)C)C(N)=O [gallium-68 labelled]	microPET imaging	mouse PC-3 xenograft, PC-3 tumour	intravenous, 3.7 MBq, 60 min	–	maximum tumour uptake	4.91 ± 1 %ID/g
CCCC[C@H](NC(=O)COCCOCCNC(=O)CN1CCN(CC(=O)O)CCN(CC(=O)O)CC1)C(=O)N[C@H]1CC(=O)NCCCC[C@@H](C(N)=O)NC(=O)[C@H](Cc2c[nH]c3ccccc23)NC(=O)[C@H](CCCNC(=N)N)NC(=O)[C@@H](Cc2ccccc2)NC(=O)[C@H](Cc2c[nH]cn2)NC1=O [copper-64 labelled]	–	C57 mice, spleen	intravenous, 0.37 MBq, 24 h	–	tissue uptake	0.36 ± 0.17 %ID/g
CC[C@H](C)[C@H](NC(=O)[C@H](Cc1c[nH]cn1)NC(=O)[C@@H]1CSSC[C@H](NC(=O)[C@H](Cc2c[nH]cn2)NC(=O)[C@H](Cc2ccccc2)NC(=O)CN2CCN(CC(=O)O)CCN(CC(=O)O)CCN(CC(=O)O)CC2)C(=O)N2C[C@H](O)C[C@H]2C(=O)N[C@@H](Cc2ccc(O)c(Cl)c2)C(=O)N[C@@H](CC(=O)O)C(=O)N[C@@H](CC(C)C)C(=O)N1)C(=O)N[C@@H](CC(C)C)C(=O)NCc1ccc(CNC(=O)CN2CCN(CC(=O)O)CCN(CC(=O)O)CCN(CC(=O)O)CC2)cc1 [indium-111 labelled]	–	Sprague-Dawley rat, male, carotid artery thrombosis, thrombus	3 h	–	thrombus uptake	1.04 %ID/g
